Assay results pooled from the literature.
Protocols differ between the studies behind these lines. ± gives the spread as reported. In brackets after ≈: the same amount, converted by molar mass.

SMILES	target or system	assay	system	setting	scale	endpoint	result
Cc1nc2c(=O)n(O)c(=O)[nH]c2s1	Brassica rapa	–	–	10 mg/mL, 72 h	–	root length inhibition	20%
CN[C@H](CC(C)C)C(=O)N[C@H]1C(=O)N[C@@H](CC(N)=O)C(=O)N[C@H]2C(=O)N[C@H]3C(=O)N[C@H](C(=O)N[C@H](C(=O)O)c4cc(O)cc(O)c4-c4cc3ccc4O)[C@H](O)c3ccc(c(Cl)c3)Oc3cc2cc(c3O[C@@H]2O[C@H](CO)[C@@H](O)[C@H](O)[C@H]2O[C@H]2C[C@](C)(N)[C@H](O)[C@H](C)O2)Oc2ccc(cc2Cl)[C@H]1O	Enterococcus faecalis	broth microdilution	compound-intermediate isolates	–	–	MBC	4 µg/mL (≈ 2.76 µM)
c1coc(-c2n[nH]cc2-c2ccnc3ccccc23)c1	CAK1 (Candida albicans)	kinase binding, MIB/MS competition	Candida albicans lysate	10 µM	reference: DMSO	log2 fold change	-0.18
O=c1[nH]c2nc(-c3cccnc3)sc2c(=O)n1O	Brassica rapa	–	–	100 mg/mL, 72 h	–	root length inhibition	24%
CC(=O)N(C)[C@H]1CCN(C(=O)c2cnc3c(c2)C[C@](C)(c2ccc(F)cc2)N3)C1	vanin activity	LC-MS/MS	human, plasma	30 mg, 4 h post-dose, median	reference: baseline	pantetheine increase	1410%
CC(=O)NC[C@H]1CN(c2ccc(N3CCOCC3)c(F)c2)C(=O)O1	Enterococcus faecalis	agar dilution	vancomycin-intermediate	–	–	MIC90	4 µg/mL (≈ 11.9 µM)
Cc1cc(OC(C)C)ccc1C(=O)C(C)(C)NC(=O)c1sccc1C	Botrytis cinerea	germ tube elongation	B05.10	0.3 µg/mL	–	inhibition	94.4 ± 3.6%
Oc1ccccc1-c1n[nH]cc1-c1ccnc2ccccc12	CAK1 (Candida albicans)	kinase binding, MIB/MS competition	Candida albicans lysate	1 µM	reference: DMSO	log2 fold change	-0.03
Cn1cc(-c2ccc(-c3cncc(Cl)c3N3CCC4(CCNC4=O)CC3)cc2)cn1	COLO 205	gene expression, microarray, item: EMP1 mRNA	–	concentration not given, 6 h	reference: untreated cells	log2 fold change	3.73
OC(CCN1CCCCC1)(c1ccccc1)C1CC2C=CC1C2 (stereo not shown)	–	resting-state EEG	healthy elderly humans	oral, 4 mg, eyes open, LS mean	reference: baseline	theta power, EEG, Fz Cz, change in	24.4%
O=c1[nH]c2nc(-c3ccccc3)sc2c(=O)n1O	Brassica rapa	–	–	100 mg/mL, 72 h	–	root length inhibition	92%
Cc1cc(F)cc2c(CCC(=O)N[C@@H]3C(=O)NC[C@H]3O)c(-c3ccc(F)cc3)[nH]c12	–	–	mice, APOL1 G2, single copy	oral, 30 mg/kg twice daily, day 7, dosing from day 6, with: IFNγ plasmid injection	–	UACR	5530 µg/mg
O=c1[nH]c2sc(-c3ccccc3)nc2c(=O)n1O	Brassica rapa	–	–	100 mg/mL, 72 h	–	root length inhibition	33%
CN[C@H](CC(C)C)C(=O)N[C@H]1C(=O)N[C@@H](CC(N)=O)C(=O)N[C@H]2C(=O)N[C@H]3C(=O)N[C@H](C(=O)N[C@H](C(=O)O)c4cc(O)cc(O)c4-c4cc3ccc4O)[C@H](O)c3ccc(c(Cl)c3)Oc3cc2cc(c3O[C@@H]2O[C@H](CO)[C@@H](O)[C@H](O)[C@H]2O[C@H]2C[C@](C)(N)[C@H](O)[C@H](C)O2)Oc2ccc(cc2Cl)[C@H]1O	Enterococcus faecalis	–	ATCC 29212	–	–	MIC range	1 µg/mL (≈ 0.69 µM)
O=c1[nH]c2ncsc2c(=O)n1O	Brassica rapa	–	–	750 g/ha, 21 days, pre-emergence, glasshouse pot	–	growth inhibition	0%
CC(C)NCC(O)c1ccc(O)c(O)c1 (stereo not shown)	–	–	ventricular cardiomyocytes, C57BL/6 mouse	dose not given, 0.176 s	–	sarcomere length	1.51 µm
